Results pooled from the literature.
Every numbered part comes from another study and shows a few of its results, in no order. Several values in a cell are separate wells, animals, samples, runs or records.
UniProt Q8N568, sequence (whole entry, looked up): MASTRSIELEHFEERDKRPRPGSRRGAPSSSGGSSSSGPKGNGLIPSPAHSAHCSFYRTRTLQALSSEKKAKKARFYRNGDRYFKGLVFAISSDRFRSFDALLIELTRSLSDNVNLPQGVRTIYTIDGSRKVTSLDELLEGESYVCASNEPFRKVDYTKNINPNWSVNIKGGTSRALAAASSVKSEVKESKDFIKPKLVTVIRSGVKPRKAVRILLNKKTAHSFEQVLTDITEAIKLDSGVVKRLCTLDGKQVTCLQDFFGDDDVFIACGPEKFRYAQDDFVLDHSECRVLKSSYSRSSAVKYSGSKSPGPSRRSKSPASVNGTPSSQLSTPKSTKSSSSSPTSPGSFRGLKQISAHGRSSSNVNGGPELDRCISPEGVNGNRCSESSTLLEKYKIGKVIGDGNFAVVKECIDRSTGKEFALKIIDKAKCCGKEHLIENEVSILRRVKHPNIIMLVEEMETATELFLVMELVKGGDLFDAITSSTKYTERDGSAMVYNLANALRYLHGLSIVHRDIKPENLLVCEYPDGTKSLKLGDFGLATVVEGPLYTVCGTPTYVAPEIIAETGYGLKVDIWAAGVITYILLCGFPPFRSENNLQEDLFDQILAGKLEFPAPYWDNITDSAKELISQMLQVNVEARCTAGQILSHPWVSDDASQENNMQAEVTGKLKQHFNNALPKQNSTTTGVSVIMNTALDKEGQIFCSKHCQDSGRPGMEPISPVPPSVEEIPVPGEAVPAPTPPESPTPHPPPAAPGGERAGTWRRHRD
UniProt Q9H4B4, sequence (whole entry, looked up): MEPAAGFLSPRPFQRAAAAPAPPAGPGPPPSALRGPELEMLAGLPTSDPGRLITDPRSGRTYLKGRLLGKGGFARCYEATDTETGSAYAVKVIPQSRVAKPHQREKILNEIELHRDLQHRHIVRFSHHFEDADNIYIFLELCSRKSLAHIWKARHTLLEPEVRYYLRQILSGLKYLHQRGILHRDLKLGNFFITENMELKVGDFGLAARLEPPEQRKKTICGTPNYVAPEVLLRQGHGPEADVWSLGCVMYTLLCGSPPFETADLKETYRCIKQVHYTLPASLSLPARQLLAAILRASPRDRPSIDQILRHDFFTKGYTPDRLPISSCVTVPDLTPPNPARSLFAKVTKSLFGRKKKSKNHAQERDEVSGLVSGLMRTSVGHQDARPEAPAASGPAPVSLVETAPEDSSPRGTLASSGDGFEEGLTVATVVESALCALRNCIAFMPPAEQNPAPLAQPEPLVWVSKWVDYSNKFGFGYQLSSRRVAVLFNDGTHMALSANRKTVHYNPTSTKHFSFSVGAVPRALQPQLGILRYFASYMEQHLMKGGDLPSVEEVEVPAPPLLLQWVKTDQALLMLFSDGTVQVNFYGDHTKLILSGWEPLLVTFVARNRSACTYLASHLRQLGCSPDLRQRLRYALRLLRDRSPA
UniProt Q99558, sequence (whole entry, looked up): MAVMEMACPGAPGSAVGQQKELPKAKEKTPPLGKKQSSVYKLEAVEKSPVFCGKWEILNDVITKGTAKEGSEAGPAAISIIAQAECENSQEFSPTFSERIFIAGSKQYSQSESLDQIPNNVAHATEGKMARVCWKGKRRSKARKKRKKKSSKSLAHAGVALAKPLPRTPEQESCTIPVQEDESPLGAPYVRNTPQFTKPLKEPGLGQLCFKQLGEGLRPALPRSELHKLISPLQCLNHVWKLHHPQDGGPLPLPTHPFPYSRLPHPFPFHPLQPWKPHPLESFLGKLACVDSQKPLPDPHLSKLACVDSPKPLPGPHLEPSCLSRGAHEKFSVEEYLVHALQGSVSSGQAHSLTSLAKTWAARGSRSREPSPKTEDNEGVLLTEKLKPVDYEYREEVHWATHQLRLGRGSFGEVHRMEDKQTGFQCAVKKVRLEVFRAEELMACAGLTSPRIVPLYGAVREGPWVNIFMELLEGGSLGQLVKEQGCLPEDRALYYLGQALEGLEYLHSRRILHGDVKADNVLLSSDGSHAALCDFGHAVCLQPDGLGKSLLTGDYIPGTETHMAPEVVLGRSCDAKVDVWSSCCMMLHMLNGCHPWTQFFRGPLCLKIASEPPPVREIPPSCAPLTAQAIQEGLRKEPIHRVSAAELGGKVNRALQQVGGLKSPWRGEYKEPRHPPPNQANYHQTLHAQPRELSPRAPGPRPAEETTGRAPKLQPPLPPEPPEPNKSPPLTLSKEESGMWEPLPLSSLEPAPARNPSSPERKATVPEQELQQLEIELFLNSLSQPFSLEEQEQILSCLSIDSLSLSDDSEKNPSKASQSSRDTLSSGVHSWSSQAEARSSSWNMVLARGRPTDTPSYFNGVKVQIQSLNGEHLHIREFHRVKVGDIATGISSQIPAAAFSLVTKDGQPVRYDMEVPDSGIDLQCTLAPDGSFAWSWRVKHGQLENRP
UniProt Q9HBH9, sequence (whole entry, looked up): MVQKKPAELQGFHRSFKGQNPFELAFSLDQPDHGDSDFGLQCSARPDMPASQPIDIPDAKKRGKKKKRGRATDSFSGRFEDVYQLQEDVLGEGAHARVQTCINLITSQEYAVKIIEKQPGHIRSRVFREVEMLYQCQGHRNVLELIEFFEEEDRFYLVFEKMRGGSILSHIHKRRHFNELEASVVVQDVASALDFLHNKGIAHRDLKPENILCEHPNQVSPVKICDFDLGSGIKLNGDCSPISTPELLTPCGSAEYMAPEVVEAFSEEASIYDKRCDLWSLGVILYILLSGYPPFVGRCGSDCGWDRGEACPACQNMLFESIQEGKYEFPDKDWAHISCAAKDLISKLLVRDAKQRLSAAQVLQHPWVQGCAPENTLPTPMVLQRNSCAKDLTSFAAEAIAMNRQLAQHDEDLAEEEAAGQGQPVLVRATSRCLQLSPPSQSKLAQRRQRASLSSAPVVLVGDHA
UniProt Q5VT25, sequence (whole entry, looked up): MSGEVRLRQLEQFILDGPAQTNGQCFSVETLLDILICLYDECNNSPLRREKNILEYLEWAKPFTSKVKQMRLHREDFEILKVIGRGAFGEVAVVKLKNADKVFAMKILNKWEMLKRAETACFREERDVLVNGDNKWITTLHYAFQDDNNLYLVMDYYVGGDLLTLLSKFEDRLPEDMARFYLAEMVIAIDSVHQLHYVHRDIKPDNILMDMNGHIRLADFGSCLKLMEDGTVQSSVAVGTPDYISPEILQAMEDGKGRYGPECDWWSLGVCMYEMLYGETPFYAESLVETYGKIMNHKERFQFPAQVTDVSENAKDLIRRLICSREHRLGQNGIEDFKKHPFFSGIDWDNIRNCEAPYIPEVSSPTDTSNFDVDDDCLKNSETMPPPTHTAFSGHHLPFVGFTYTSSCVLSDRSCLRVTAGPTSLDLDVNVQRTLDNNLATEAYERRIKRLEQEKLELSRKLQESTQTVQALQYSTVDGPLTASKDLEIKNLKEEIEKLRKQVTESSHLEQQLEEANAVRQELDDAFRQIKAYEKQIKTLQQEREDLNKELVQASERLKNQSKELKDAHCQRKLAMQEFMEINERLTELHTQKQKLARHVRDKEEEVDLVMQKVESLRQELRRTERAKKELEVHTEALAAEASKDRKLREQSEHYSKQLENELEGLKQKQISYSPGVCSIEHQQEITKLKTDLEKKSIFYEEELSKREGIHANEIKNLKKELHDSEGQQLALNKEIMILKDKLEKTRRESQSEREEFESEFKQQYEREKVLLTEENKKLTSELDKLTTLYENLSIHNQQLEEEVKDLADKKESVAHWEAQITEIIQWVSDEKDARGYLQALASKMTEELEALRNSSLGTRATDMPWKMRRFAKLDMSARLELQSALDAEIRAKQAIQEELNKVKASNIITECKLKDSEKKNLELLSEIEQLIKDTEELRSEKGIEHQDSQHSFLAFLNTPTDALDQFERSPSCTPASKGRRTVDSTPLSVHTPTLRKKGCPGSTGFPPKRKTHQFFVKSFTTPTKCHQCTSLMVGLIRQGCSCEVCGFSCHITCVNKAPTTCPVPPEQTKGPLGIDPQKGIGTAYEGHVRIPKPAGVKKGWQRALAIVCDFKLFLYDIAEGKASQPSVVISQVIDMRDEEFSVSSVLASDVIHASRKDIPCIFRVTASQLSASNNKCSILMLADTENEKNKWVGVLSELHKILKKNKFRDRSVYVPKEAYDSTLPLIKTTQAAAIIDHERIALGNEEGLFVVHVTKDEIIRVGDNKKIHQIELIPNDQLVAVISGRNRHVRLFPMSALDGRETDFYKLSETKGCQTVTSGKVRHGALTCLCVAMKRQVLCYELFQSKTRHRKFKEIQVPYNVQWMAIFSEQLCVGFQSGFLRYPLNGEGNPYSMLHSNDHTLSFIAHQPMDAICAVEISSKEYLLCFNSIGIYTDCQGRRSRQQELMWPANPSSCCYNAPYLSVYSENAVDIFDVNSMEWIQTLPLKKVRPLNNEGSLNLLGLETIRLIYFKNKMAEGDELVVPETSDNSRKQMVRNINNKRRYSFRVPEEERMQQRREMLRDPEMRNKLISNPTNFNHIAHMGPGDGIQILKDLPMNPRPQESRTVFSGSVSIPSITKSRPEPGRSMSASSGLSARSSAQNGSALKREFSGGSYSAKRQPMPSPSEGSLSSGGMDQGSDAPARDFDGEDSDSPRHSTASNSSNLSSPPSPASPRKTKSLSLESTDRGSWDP
UniProt P06493, sequence (whole entry, looked up): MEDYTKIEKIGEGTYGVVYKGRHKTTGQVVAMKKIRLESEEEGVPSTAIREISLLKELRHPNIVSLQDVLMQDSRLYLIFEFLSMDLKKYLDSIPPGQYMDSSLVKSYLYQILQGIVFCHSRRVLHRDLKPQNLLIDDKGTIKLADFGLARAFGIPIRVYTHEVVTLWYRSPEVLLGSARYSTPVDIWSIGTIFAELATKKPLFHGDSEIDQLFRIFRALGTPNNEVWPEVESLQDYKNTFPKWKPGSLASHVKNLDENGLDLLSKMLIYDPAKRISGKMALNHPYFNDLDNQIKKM

Sample 1
SMILES: COc1ccc(Cl)cc1NC(=O)Nc1cc(C)nc2ccccc12
Read-out: enzyme activity
Mode: inhibitor
Concentration: 0.5 µM
Reference: control
| target | remaining activity [%] |
| --- | --- |
| Serine/threonine-protein kinase PLK3 (PLK3, Homo sapiens, UniProt Q9H4B4) | 100 |
| Rho-associated protein kinase 1 (ROCK1, Homo sapiens, UniProt Q13464) | 100 |
| Cyclin-dependent kinase 1, with cyclin A (CDK1, Homo sapiens, UniProt P06493) | 104 |
| Serine/threonine-protein kinase DCLK2 (DCLK2, Homo sapiens, UniProt Q8N568) | 96.5 |
| Serine/threonine-protein kinase MRCK beta (CDC42BPB, Homo sapiens, UniProt Q9Y5S2) | 94.4 |
| Calcium/calmodulin-dependent protein kinase type 1B (PNCK, Homo sapiens, UniProt Q6P2M8) | 98.7 |
| Discoidin domain-containing receptor 2 (DDR2, Homo sapiens, UniProt Q16832) | 97.7 |
| Serine/threonine-protein kinase MARK2 (MARK2, Homo sapiens, UniProt Q7KZI7) | 99.5 |
| Calcium/calmodulin-dependent protein kinase type IV (CAMK4, Homo sapiens, UniProt Q16566) | 93.6 |
| Dual specificity protein kinase CLK4 (CLK4, Homo sapiens, UniProt Q9HAZ1) | 108 |
| Tyrosine-protein kinase TXK (TXK, Homo sapiens, UniProt P42681) | 98.9 |
| Cyclin-dependent kinase 9, with cyclin K (CDK9, Homo sapiens, UniProt P50750) | 95.9 |
| Serine/threonine-protein kinase PAK 3 (PAK3, Homo sapiens, UniProt O75914) | 98.9 |

Sample 2
SMILES: Nc1c(C(=O)NCc2ccc(C(=O)NCCCC3CCCCC3)cc2)cnn1-c1ccccc1
Concentration: 0.1 µM
| target | assay | remaining binding |
| --- | --- | --- |
| Mast/stem cell growth factor receptor Kit (KIT, Homo sapiens, UniProt P10721, V559D) | cell-free assay, competition with immobilised ligand | 45% |
| Dual specificity tyrosine-phosphorylation-regulated kinase 1A (DYRK1A, Homo sapiens, UniProt Q13627) | cell-free assay, competition with immobilised ligand | 100% |
| Serine/threonine-protein kinase MRCK alpha (CDC42BPA, Homo sapiens, UniProt Q5VT25) | cell-free assay, competition with immobilised ligand | 100% |
| Serine/threonine-protein kinase tousled-like 1 (TLK1, Homo sapiens, UniProt Q9UKI8) | cell-free assay, competition with immobilised ligand | 77% |
| Mitogen-activated protein kinase kinase kinase 14 (MAP3K14, Homo sapiens, UniProt Q99558) | cell-free assay, competition with immobilised ligand | 100% |
| Receptor-interacting serine/threonine-protein kinase 4 (RIPK4, Homo sapiens, UniProt P57078) | cell-free assay, competition with immobilised ligand | 100% |
| MAP kinase-interacting serine/threonine-protein kinase 2 (MKNK2, Homo sapiens, UniProt Q9HBH9) | cell-free assay, competition with immobilised ligand | 100% |
| AP2-associated protein kinase 1 (AAK1, Homo sapiens, UniProt Q2M2I8) | binding | 100% |
| Serine/threonine-protein kinase LATS1 (LATS1, Homo sapiens, UniProt O95835) | cell-free assay, competition with immobilised ligand | 100% |

Sample 3
Cell line: HaCaT
Concentration: 100 µM
Time: 60 h
| Structure (SMILES) | viability [%] |
| --- | --- |
| N[C@@H](Cc1ccc(O)c(O)c1)C(=O)O | 71.3 |
| COc1ccc(-c2cc(=O)c3c(O)cc(O[C@@H]4O[C@H](CO[C@@H]5O[C@@H](C)[C@H](O)[C@@H](O)[C@H]5O)[C@@H](O)[C@H](O)[C@H]4O)cc3o2)cc1O | 56.5 |
| Nc1nc(CC(=O)Nc2ccc(CCNC[C@H](O)c3ccccc3)cc2)cs1 | 95.7 |
| O=c1cc[nH]c(=O)[nH]1 | 148 |
| Cc1cn[nH]c1 | 136 |
| CO[C@H]1/C=C/O[C@@]2(C)Oc3c(C)c(O)c4c(O)c(c(/C=N/N5CCN(C6CCCC6)CC5)c(O)c4c3C2=O)NC(=O)/C(C)=C\C=C\[C@H](C)[C@H](O)[C@@H](C)[C@@H](O)[C@@H](C)[C@H](OC(C)=O)[C@@H]1C | 62 |
| C=CCc1cc(OC)c(O)c(C(=O)NCCO)c1 | 141 |
| CC(=O)OCC(=O)[C@H]1CC[C@H]2[C@@H]3CCC4=CC(=O)CC[C@]4(C)[C@H]3CC[C@]12C | 86.3 |

Single results of other studies
| Structure (SMILES) | system | setting | how to read | quantity | value |
| --- | --- | --- | --- | --- | --- |
| COc1ccc(-c2c(Nc3ccccn3)[nH]c3c(C4=CCCCC4)c(-c4ccccc4)nn3c2=O)cc1 | human, plasma | oral, 200 mg twice daily | reference: (Cmax-Cmin) over Cmin | swing | 0.685 and 0.551 and 0.263 |

For quick reference, copied from above (sample 3):
| Structure (SMILES) | viability [%] |
| --- | --- |
| Nc1nc(CC(=O)Nc2ccc(CCNC[C@H](O)c3ccccc3)cc2)cs1 | 95.7 |
| CC(=O)OCC(=O)[C@H]1CC[C@H]2[C@@H]3CCC4=CC(=O)CC[C@]4(C)[C@H]3CC[C@]12C | 86.3 |
| COc1ccc(-c2cc(=O)c3c(O)cc(O[C@@H]4O[C@H](CO[C@@H]5O[C@@H](C)[C@H](O)[C@@H](O)[C@H]5O)[C@@H](O)[C@H](O)[C@H]4O)cc3o2)cc1O | 56.5 |
| Cc1cn[nH]c1 | 136 |
| C=CCc1cc(OC)c(O)c(C(=O)NCCO)c1 | 141 |
